Earlier results that unrelated publications cite.
Protocols differ between the studies behind these lines.
Sequence of UniProt Q9P1W9 (whole entry, looked up): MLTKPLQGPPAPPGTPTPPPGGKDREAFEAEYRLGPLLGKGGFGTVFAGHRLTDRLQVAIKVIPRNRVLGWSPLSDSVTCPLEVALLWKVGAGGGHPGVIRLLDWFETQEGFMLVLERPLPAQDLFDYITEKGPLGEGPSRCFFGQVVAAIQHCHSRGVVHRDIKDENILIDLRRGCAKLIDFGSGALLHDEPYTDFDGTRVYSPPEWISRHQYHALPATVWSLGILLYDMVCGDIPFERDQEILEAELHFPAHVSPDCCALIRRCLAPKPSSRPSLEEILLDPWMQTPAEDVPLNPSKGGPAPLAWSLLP

c1cc(-c2cnn3cc(-c4ccc(OCCN5CCCCC5)cc4)cnc23)ccn1
inhibition (CSNK1D; kinase activity, inhibitor; 0.5 µM): 77%

Cn1c(=O)oc2ccc(-c3ccc(C[C@@H](C#N)NC(=O)[C@@H]4CNCCCO4)cc3)cc21
inhibition (neprilysin; healthy human, blood; 25 mg once daily): 49%

CCS(=O)(=O)N(C)[C@H]1c2cc(C#N)ccc2OC(C)(C)[C@@H]1O (racemic)
inhibition (Kv7.1 potassium channel; manual patch clamp; 10 µM): 43.2%

CC(C)[C@H](CO)Nc1nc(Nc2cc(N)cc(Cl)c2)c2ncn(C(C)C)c2n1
inhibition (CSNK1G1; kinase activity, inhibitor; 0.5 µM): 74%

Cc1cccc(-c2[nH]c(CNc3ccccc3F)nc2-c2ccc3ncnn3c2)n1
inhibition (OATP1B3 and OATP2B1; transport activity, inhibitor; up to 100 µM): no inhibition

Nc1cc(C(F)(F)F)c(-c2nc(N3CCOCC3)nc(N3CCOCC3)n2)cn1
remaining activity (PIM2 (Homo sapiens, UniProt Q9P1W9); enzyme activity; 10 µM; reference: untreated): 86%

CC(C)n1cnc2c(Nc3cccc(Cl)c3)nc(NCCO)nc21
inhibition (CSNK1G1; kinase activity, inhibitor; 0.5 µM): 84%

COc1ccc(F)cc1C(=O)NCc1ccc(-c2nn([C@@H](C)C(F)(F)F)c(N)c2C(N)=O)cc1
inhibition (BTK human; target occupancy; human patients; 200 mg daily, steady-state trough): 96%

CCNc1nc(Cl)nc(NC(C)C)n1
inhibition (MDR1 (P-glycoprotein), mouse; B16/F10 melanoma; concentration not given): no inhibition

CC(C)Oc1ccc(-c2c[nH]cc2CN(C)CCN)cc1
inhibition (PRMT5; enzyme activity, inhibitor; concentration not given): inactive

CNC(=O)c1c(C)oc2cc(Oc3ncnc4cc(OC)c(OC)cc34)ccc12
inhibition (VEGFR-2 (mouse); receptor phosphorylation; mouse; oral, 2.5 mg/kg single dose): > 80%

CC1(C)S[C@@H]2[C@H](NC(=O)[C@H](N)c3ccccc3)C(=O)N2[C@H]1C(=O)O
MIC (Klebsiella pneumoniae; clinical isolate RKI-No_107/15): > 16 mg/L

C[C@H]1COCCN1c1nc(-c2cnc(N)cc2C(F)F)nc(N2CCOCC2)n1
GI50 (C33 A): 0.331 µM

CNC(C)C1CCC(N)C(OC2C(N)CC(N)C(OC3OCC(C)(O)C(NC)C3O)C2O)O1 (stereo not drawn)
MIC (Klebsiella pneumoniae; clinical isolate RKI-No_577/15): > 8 mg/L

N=C(N)c1ccc(Nc2ccc(-c3cc4ccc(C(=N)N)cc4[nH]3)cc2)cc1
inhibition (PRMT8; enzyme activity, inhibitor; concentration not given): inhibited

Repeated from above:
CCNc1nc(Cl)nc(NC(C)C)n1
inhibition (MDR1 (P-glycoprotein), mouse; B16/F10 melanoma; concentration not given): no inhibition

CNC(=O)c1c(C)oc2cc(Oc3ncnc4cc(OC)c(OC)cc34)ccc12
inhibition (VEGFR-2 (mouse); receptor phosphorylation; mouse; oral, 2.5 mg/kg single dose): > 80%
